Assay results collected from several papers.
Parts stem from different laboratories: compare values within a part only. Values joined by “and” are separate records of one study, mostly repeats; a detail may differ.
Chain of UniProt Q9H2G2 (whole entry, looked up): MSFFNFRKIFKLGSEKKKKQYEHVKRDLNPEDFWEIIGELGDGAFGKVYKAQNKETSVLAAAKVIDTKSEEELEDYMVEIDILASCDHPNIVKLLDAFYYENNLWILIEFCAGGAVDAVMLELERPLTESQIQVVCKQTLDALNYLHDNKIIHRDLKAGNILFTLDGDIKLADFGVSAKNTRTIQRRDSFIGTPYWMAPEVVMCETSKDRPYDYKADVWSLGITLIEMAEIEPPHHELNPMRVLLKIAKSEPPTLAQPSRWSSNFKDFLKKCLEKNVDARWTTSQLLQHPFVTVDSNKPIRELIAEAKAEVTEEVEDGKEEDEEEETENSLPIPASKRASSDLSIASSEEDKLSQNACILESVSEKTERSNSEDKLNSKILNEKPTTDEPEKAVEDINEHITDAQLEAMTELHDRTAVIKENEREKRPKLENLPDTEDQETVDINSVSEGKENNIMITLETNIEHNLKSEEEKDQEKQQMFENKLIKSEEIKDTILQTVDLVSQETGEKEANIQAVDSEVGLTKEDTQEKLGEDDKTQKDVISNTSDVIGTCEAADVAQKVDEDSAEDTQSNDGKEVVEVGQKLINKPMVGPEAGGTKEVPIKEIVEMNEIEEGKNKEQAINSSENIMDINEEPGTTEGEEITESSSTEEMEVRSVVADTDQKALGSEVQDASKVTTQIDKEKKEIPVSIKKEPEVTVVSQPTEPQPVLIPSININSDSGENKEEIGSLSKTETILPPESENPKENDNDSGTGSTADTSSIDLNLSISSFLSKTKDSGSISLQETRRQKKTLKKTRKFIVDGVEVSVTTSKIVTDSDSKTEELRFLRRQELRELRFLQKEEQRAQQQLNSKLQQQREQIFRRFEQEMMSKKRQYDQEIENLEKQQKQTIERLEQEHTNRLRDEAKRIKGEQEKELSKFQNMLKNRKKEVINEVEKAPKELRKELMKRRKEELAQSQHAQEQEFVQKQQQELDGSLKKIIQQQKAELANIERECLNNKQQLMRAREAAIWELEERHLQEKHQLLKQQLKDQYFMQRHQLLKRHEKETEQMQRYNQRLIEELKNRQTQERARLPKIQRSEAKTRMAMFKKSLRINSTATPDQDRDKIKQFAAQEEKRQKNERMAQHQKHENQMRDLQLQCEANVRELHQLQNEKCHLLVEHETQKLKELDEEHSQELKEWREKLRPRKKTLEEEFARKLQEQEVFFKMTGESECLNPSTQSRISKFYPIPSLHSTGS
Chain of UniProt Q8TD19 (whole entry, looked up): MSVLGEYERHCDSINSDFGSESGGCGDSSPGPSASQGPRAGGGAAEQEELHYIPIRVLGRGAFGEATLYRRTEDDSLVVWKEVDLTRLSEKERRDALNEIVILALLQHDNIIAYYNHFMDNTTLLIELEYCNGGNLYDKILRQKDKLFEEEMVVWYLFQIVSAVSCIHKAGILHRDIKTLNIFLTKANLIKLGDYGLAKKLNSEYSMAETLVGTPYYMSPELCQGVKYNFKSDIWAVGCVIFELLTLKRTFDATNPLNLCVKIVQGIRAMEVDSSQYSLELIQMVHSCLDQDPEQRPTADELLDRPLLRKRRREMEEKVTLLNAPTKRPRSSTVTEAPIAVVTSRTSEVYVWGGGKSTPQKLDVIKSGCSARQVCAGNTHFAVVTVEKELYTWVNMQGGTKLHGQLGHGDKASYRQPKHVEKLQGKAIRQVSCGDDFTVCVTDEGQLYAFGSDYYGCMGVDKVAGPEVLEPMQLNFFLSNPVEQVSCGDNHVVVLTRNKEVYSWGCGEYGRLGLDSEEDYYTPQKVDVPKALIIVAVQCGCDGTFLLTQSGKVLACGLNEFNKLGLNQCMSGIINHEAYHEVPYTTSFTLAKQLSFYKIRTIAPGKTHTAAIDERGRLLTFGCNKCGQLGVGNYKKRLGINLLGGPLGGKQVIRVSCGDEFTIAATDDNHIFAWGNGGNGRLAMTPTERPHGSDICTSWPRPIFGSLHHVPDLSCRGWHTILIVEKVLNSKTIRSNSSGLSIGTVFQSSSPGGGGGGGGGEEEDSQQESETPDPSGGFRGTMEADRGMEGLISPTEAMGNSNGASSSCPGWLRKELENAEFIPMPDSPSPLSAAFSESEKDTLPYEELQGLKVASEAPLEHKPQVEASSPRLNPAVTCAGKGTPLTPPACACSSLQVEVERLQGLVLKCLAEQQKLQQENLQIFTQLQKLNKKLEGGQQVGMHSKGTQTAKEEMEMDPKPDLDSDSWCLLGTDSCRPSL
Chain of UniProt O14965 (whole entry, looked up): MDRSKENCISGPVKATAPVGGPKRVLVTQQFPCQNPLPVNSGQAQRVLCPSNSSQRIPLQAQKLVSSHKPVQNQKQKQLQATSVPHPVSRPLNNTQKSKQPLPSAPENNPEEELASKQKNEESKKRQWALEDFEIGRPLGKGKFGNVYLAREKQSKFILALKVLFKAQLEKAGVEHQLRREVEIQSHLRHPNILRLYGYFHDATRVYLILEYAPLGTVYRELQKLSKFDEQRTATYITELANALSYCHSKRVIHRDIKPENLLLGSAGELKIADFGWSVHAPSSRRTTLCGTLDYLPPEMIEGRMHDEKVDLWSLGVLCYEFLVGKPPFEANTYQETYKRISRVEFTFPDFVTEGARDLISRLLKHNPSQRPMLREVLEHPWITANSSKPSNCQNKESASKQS
Chain of UniProt Q8IU85 (whole entry, looked up): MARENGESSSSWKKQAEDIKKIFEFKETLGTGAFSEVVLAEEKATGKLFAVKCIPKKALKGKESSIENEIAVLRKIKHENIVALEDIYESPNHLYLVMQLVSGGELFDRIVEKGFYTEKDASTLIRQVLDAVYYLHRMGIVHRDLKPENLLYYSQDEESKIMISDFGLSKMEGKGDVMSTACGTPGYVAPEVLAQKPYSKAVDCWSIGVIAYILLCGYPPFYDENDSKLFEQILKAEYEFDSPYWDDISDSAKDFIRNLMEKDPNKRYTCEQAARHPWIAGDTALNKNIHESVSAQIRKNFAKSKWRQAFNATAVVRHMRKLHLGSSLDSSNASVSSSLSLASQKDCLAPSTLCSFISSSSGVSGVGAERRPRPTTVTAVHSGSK
Chain of UniProt Q15139 (whole entry, looked up): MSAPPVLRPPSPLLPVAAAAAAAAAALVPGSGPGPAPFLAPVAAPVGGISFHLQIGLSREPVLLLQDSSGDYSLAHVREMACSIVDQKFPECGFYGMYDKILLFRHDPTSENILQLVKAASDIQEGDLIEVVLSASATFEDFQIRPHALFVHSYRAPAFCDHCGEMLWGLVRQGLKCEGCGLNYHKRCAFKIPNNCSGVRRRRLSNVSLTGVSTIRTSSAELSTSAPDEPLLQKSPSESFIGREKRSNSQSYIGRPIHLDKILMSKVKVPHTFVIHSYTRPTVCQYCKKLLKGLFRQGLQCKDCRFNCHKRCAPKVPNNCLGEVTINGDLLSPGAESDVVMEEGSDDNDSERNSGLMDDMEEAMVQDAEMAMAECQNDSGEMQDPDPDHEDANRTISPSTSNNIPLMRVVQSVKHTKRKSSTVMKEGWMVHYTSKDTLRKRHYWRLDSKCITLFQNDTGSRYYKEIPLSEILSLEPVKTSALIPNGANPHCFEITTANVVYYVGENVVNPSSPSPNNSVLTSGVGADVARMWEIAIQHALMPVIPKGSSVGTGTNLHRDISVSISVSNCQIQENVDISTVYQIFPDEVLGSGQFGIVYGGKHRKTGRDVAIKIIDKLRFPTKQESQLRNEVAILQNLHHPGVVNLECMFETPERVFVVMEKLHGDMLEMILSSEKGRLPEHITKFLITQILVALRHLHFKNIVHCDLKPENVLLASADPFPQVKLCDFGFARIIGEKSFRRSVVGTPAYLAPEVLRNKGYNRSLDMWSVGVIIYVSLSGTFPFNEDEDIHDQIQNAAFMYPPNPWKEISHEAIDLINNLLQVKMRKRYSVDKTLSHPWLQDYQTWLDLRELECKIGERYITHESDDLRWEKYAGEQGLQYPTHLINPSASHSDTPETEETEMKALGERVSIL
Chain of UniProt P34947 (whole entry, looked up): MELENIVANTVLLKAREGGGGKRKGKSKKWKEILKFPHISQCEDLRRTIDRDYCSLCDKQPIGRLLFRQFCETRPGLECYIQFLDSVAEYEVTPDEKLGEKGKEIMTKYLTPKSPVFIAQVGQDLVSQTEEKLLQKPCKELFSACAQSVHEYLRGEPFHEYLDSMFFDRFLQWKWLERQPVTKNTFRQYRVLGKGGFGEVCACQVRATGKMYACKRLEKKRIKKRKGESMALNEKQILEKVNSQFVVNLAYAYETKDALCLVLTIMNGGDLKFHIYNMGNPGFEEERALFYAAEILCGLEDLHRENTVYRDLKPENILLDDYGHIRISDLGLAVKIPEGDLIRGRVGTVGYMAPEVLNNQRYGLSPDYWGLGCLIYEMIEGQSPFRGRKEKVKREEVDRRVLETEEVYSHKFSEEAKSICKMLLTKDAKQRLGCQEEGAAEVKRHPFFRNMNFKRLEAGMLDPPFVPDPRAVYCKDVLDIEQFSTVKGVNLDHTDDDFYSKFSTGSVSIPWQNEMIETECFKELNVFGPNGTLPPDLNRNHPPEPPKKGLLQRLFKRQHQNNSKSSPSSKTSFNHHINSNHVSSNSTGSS
Chain of UniProt Q96NX5 (whole entry, looked up): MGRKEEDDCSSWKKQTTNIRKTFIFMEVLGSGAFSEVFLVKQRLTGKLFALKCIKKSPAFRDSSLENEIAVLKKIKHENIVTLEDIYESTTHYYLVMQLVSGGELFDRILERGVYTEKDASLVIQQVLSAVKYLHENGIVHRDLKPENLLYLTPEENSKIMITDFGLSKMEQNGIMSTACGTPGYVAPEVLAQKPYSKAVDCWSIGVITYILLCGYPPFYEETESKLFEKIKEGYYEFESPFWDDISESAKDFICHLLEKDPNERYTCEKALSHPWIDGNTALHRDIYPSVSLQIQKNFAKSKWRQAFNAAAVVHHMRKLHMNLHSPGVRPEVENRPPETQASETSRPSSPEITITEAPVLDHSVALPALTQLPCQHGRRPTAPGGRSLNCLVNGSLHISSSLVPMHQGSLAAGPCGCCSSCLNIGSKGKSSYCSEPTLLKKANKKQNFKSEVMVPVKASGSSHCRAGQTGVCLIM

Set 1 — Compound: Fc1ccc(-c2nc3n(c2-c2ccncc2)CCS3)cc1; observed: enzyme activity; action: inhibitor; tested at: 0.5 µM; relative to: control; endpoint: remaining activity
Calcium/calmodulin-dependent protein kinase type 1G (CAMK1G, Homo sapiens, UniProt Q96NX5): 95.2%
Casein kinase II subunit alpha' (CSNK2A2, Homo sapiens, UniProt P19784): 105%
Homeodomain-interacting protein kinase 3 (HIPK3, Homo sapiens, UniProt Q9H422): 109%
Calcium/calmodulin-dependent protein kinase type 1D (CAMK1D, Homo sapiens, UniProt Q8IU85): 100%
Cyclin-dependent kinase 2, with cyclin A (CDK2, Homo sapiens, UniProt P24941): 101%
Serine/threonine-protein kinase Nek9 (NEK9, Homo sapiens, UniProt Q8TD19): 102%
NT-3 growth factor receptor (NTRK3, Homo sapiens, UniProt Q16288): 105%
Protein-tyrosine kinase 2-beta (PTK2B, Homo sapiens, UniProt Q14289): 106%
STE20-like serine/threonine-protein kinase (SLK, Homo sapiens, UniProt Q9H2G2): 110%
Aurora kinase A (AURKA, Homo sapiens, UniProt O14965): 92.1%
G protein-coupled receptor kinase 5 (GRK5, Homo sapiens, UniProt P34947): 103%
Serine/threonine-protein kinase D1 (PRKD1, Homo sapiens, UniProt Q15139): 90.2%

Set 2 — species: mouse; medium: microsomes or S9; tested at: 2 µM; time: 0.5 h; endpoint: remaining compound
CCOc1cccc2c1OC1(CCN(CC)CC1)N1N=C(c3ccccc3)CC21 (stereo not shown): 0.687%
COc1ccc(NC(=O)N2Cc3c(sc4c3CCCC4)-n3cccc3C2c2cccs2)c(OC)c1 (stereo not shown): 7.7%
Cc1cc(C)c2c(=O)n(CC(=O)NCc3ccc4c(c3)OCO4)c(=O)n(-c3ccccc3)c2n1: 80.7%
O=C(Nc1ccc2nc[nH]c(=O)c2c1)c1cc(-c2ccc(Br)s2)n[nH]1: 29%
CCCNC(=O)Nc1ccccc1S(=O)(=O)NCCC: > 99%
Cc1cc(C)cc(OC(C)C(=O)NCCN(C)C)c1 (stereo not shown): 59.5%
COc1ccc(OC)c(Nc2nc(CC(=O)NCCc3c[nH]c4ccccc34)cs2)c1: 3.06%

Set 3 — cell line: mouse MPNST tumor cells; method: high-content immunofluorescence imaging; refers to: nuclear SOX9; tested at: 10 µM; time: 12 h; notes: mean of 2 replicates; relative to: DMSO control; direction: higher = more nuclear SOX9; endpoint: nuclear SOX9 intensity
Nc1ncnc2c1c(-c1ccc(Oc3ccccc3)cc1)nn2C1CCCC1: 129 % of DMSO
CC(=O)N(CC(O)CO)c1c(I)c(C(=O)NCC(O)CO)c(I)c(C(=O)NCC(O)CO)c1I (stereo not shown): 94.3 % of DMSO
CCCCCCN(CCCCCC)C(=O)Cc1c(-c2ccc(F)cc2)[nH]c2ccccc12: 137 % of DMSO
C[C@H](NC(=O)c1sccc1OCc1ccc(Cl)cc1)c1ccccc1: 113 % of DMSO
CC(C)(C)c1ccc(OC2CCCCC2O)cc1 (stereo not shown): 99.5 % of DMSO

Single results of other studies
Cn1cncc1[C@@](O)(COc1ccc(C#N)cc1-c1ccc(OC(F)(F)F)cc1)c1ccc(C#N)cc1  pyknotic nuclei (HEK293T; high-content imaging; 10 µM, 12 h): 30.2% and 51.1%
